Published values of several laboratories.
Each numbered part is a random draw from the data of one study; scales do not carry over between parts. Positions count from the first letter of the parent shown.

Series 1
Target: ABI1, truncated, D143A, DHFR fusion (Arabidopsis thaliana)
Method: DHFR PCA, deep sequencing
Medium: yeast
Notes: methotrexate growth selection, single substitutions
Together with: (+)-ABA 2500 µM
Relative to: wild-type fitted maximum
Direction: higher = stronger binding
Starting sequence: PYL1, truncated, DHFR fusion (Arabidopsis thaliana); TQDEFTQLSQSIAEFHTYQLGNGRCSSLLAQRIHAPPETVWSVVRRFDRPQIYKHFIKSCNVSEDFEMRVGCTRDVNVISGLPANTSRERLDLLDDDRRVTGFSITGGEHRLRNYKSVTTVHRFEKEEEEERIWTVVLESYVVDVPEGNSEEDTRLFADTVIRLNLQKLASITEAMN
Change	relative binding score [%]
E139P	-0.448
N149H	69.7
A30F	105
E127T	101
R45T	73.5
T1M	93.9
T119N	65.2
L112Y	71.7
I57F	66.8
F124E	104
Y18T	92.3
S150C	97.6
E152G	95.1
R163E	90.1
S140A	44.7
H110T	91.3

Series 2
Target: CCNF, cyclin fold, Cln2 fusion (human)
Method: yeast growth competition, sequencing
Medium: yeast
Notes: strong parent motif
Relative to: not given
Direction: higher = stronger binding
Starting sequence: BORA docking peptide (human); SSLRRKLFLDGNG; partner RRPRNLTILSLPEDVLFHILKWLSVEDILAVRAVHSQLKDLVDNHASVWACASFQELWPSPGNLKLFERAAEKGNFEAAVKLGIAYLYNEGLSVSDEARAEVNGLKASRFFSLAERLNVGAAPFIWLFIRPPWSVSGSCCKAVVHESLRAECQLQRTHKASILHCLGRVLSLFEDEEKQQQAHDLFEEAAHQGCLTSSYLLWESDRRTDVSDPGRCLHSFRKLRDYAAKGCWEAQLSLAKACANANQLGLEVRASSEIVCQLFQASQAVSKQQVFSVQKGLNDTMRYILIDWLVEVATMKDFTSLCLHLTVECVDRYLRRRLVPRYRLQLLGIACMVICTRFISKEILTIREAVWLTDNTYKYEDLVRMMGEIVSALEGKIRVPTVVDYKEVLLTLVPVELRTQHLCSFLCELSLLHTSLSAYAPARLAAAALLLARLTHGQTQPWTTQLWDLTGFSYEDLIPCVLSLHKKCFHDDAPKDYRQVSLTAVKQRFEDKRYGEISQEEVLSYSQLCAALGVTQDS
Change	normalised enrichment score
SSLRAKLFLDGNG [R5A]	1.01
SSLRRKLFFDGNG [L9F]	8.21
SSLRKKLLLDGNG [R5K F8L]	0.936
ASLRRKLFLDGNG [S1A]	5
SALRRKLFLDGNG [S2A]	5.41
SSLRRKLFLDGAG [N12A]	6.27
SSLRRALFLDGNG [K6A]	5.21
SSLARKLFLDGNG [R4A]	4.2

Series 3
Target: RNA binding protein fox-1 homolog 2, RRM domain, GST-SBP tag (RBFOX2, Homo sapiens, UniProt O43251-10, residues 100-194)
Method: RNA Bind-n-Seq
Molecule type: RNA
Medium: in vitro
Concentration: 365 nM
Notes: natural RNA segment, single round, ends assumed
Relative to: no-protein control
Direction: higher = stronger binding
Constant ends, left off below: GGGAGUUCUACAGUCCGACGAUC … UGGAAUUCUCGGGUGCCAA
Target sequence (chain): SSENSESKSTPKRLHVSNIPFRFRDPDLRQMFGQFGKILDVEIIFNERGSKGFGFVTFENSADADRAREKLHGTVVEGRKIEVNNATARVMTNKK
Sequence	RBNS enrichment (R)
CCAGAUCACCCACAUUCCAGAGGCAUUUAAAUAAACAGAGAUGUGGGAUGCAGGACCCCAGCUUCCGUUCCCAAGCCCUGUUGGGAGUCCUUUCCAGUGCUUCAGGAUGC	0.441
GACGUGGCCAGCACCACGUCCAGCAGCGAGAGCUUGUGGGAGCUGCACCUGACUGGGAGCUAGGGGACCACCUGCCUUGGCCAGACCUGGGACGCCCCCAGACCCUGACU	0.655
CUUUCUUUUGGUCCUUCCUGGAAUGAACAGGUUCCCUCCCUGCCACCUGUGAGGAGAGUUGGGGCCCAGCCGUCUUCCUGGCCUCCUUCCUUUCCUCGUGGCAGAGGCCU	0.326
GUAGUCUGCCCAAUUCCUGCUGCACCUGAAGGGGAAAAAGCAGUUUAUCUGUCUCUUCCCCAAAUAACCAUUUUGUAAUUUAUUUUUUAAGCGGGCUCCUGACAAUGAGA	0.613
CAGUUACUUAUGCUGAAGAUCCCUGUGCUAGGUUAGCCUUUAGAAGUUAGAGUUGUGGAAAGCAGUAUUGUUUUCUUCUCUAGUGAUUGUUACCCUACACAUUUCAUGGA	0.271
AUUUCAAGAAGAUGAUUGGAGUAUAAGGAUUAUCAUUUUGUUAGGUAGAGUUUCUUUUUUUCUUUUUGUAAUCAUGAGUUCCCUUGACUCCCCUCUUGAUUUUCUAUCUU	0.698
UUCCCCUGAGCAUCCUCUAGAUGCUGCCCCAAGGAGUUGCUGCAGUUCUGGAGCCUCAUCUGGCUGGGAUCUCCAAGGGGCCUCCUGGAUUCAGUCCCCACUGGCCCUGA	0.221
AUAGGGACAUACCAGAUGUUGCAGUGAUUUUAGCUAUCAACAAACUGUUAACCAUGUACAAUAUUUAAAAUAGGCUUAUUUUGAUGUAUCGCCUAUUAUACAAACACACA	0.408

Series 4
Target: UBE2V2 UBC core domain (UniProt Q15819)
Method: yeast two-hybrid
Medium: yeast
Notes: mostly zero background
Relative to: not given
Direction: higher = stronger interaction
B1: RNF150 RING domain (UniProt Q9ULK6); chain DKETESDFDNCAVCIEGYKPNDVVRILPCRHLFHKSCVDPWLLDHRTCPMCKMNILKALGIP
B2: TRIM10 RING domain (UniProt Q9UDY6); chain SVTSLADEVNCPICQGTLREPVTIDCGHNFCRACLTRYCEIPGPDLEESPTCPLCKEPFRPGSFRP
B3: TRIM15 RING domain (UniProt Q9C019); chain SLKVVHELPACTLCAGPLEDAVTIPCGHTFCRLCLPALSQMGAQSSGKILLCPLCQEEEQAETPMA
B4: TRIM55 RING domain (UniProt Q9BYV6); chain TMDNLEKQLICPICLEMFTKPVVILPCQHNLCRKCASDIFQASNPYLPTRGGTTMASGGRFRCPSCRHEVVLDRHG
B5: MSL2 RING domain (UniProt Q9HCI7); chain LLPYFRQSLSCCVCGHLLQDPIAPTNSTCQHYVCKTCKGKKMMMKPSCSWCKDYEQFEENKQ
Construct (chain): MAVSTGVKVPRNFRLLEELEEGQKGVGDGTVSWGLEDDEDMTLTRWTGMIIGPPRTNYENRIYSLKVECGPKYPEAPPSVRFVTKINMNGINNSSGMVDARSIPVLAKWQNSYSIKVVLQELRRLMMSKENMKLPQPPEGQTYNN
Sequence	lacZ reporter activity
B1 (RNF150 RING domain)	0
FLKKLEQSFMCVCCQELVYQPVTTECFHNVCKDCLQRSFKAQVFSCPACRHDLGQNYIMI (UHRF2 RING domain (UniProt Q96PU4))	0
B2 (TRIM10 RING domain)	0
KRQCSDVDDICSICQAEFQKPILLICQHIFCEECMTLWFNREKTCPLCRTVISDHINKW (RNFT1 RING domain (UniProt Q5M7Z0))	0
B3 (TRIM15 RING domain)	0
B4 (TRIM55 RING domain)	0
KIKDLNEHIVCCLCAGYFVDATTITECLHTFCKSCIVKYLQTSKYCPMCNIKIHETQPLL (PCGF1 RING domain (UniProt Q9BSM1))	0
B5 (MSL2 RING domain)	0

For quick reference, copied from above (series 4):
Sequence	lacZ reporter activity
B3 (TRIM15 RING domain)	0
B4 (TRIM55 RING domain)	0
